# Measured values of several laboratories.
# Numbered parts are unrelated; each lists some results of a single study. Several values in a cell are separate wells, animals, samples, runs or records.
# Sequence of UniProt Q6XUX3 (whole entry, looked up): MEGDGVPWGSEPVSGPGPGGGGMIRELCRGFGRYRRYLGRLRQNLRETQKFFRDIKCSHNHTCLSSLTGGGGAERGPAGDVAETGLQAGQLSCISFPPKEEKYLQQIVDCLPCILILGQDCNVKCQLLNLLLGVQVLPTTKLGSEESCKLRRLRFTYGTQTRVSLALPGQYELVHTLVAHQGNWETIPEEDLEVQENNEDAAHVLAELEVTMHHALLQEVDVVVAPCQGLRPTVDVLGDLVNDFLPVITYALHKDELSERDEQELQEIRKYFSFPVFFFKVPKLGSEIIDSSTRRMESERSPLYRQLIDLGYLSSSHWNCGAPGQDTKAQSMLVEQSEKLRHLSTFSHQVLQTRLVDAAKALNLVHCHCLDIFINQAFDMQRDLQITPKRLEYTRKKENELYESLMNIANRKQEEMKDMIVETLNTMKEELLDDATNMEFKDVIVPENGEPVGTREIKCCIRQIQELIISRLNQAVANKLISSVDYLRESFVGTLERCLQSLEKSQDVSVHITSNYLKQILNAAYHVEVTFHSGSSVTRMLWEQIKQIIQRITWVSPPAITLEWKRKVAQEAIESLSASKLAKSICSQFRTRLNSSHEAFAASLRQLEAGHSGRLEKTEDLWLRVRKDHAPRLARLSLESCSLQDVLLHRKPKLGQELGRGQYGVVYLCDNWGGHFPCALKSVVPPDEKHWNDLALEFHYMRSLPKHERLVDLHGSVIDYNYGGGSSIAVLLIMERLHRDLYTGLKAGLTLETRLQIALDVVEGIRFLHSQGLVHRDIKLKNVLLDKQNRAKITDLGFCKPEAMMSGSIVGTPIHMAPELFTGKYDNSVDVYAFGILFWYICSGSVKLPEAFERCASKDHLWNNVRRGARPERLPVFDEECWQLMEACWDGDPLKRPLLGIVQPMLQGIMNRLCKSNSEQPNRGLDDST
# Sequence of UniProt Q9BUB5 (whole entry, looked up): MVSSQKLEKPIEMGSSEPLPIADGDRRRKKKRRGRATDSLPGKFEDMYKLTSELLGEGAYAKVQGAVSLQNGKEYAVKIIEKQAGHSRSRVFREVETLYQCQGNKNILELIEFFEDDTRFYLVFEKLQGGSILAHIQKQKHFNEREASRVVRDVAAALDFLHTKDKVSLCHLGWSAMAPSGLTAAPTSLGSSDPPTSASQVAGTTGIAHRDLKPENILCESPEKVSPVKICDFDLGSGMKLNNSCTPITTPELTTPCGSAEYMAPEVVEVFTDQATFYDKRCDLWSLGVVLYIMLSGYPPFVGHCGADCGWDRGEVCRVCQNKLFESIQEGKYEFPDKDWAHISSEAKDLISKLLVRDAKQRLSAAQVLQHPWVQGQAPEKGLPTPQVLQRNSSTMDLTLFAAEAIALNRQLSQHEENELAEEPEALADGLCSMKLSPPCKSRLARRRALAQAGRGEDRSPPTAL
# Sequence of UniProt P49674 (whole entry, looked up): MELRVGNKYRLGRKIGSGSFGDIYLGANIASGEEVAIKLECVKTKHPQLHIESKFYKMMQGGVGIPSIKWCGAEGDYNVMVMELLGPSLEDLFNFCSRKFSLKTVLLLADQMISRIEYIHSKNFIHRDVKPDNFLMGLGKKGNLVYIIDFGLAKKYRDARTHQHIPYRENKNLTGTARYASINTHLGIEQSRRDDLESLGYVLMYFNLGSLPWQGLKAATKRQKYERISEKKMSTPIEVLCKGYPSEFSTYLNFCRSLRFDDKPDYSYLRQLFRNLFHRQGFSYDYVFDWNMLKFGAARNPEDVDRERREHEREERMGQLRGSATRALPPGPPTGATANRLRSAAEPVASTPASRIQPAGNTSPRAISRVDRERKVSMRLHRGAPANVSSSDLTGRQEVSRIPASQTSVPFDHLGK
# Sequence of UniProt Q96Q40 (whole entry, looked up): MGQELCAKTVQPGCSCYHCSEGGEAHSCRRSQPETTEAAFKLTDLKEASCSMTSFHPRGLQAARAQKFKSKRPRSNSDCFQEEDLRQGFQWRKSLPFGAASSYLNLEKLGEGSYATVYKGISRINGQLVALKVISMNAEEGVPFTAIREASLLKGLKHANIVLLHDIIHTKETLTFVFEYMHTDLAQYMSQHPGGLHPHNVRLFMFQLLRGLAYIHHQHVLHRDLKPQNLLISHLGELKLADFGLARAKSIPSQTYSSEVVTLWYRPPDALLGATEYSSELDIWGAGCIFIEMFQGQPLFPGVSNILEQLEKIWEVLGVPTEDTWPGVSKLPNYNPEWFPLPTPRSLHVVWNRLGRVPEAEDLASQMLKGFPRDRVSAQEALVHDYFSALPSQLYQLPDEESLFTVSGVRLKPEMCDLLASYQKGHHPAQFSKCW

# Block 1 — method: competition with immobilised ligand; concentration: 1 µM
# Structure (SMILES): Cn1nc(C(F)(F)F)cc1-c1cnc(N2CCc3cc(S(=O)(=O)Nc4c(F)cc(Cl)cc4F)cc(N4CCCC4=O)c32)nc1
target,test,remaining binding [%]
"Serine/threonine-protein kinase RIO3 (RIOK3, Homo sapiens, UniProt O14730)",cell-free assay,100
"Tyrosine-protein kinase ABL1, phosphorylated (ABL1, Homo sapiens, UniProt P00519)",cell-free assay,95
"Serine/threonine-protein kinase WNK4 (WNK4, Homo sapiens, UniProt Q96J92)",cell-free assay,83
"Serine/threonine-protein kinase N2 (PKN2, Homo sapiens, UniProt Q16513)",cell-free assay,82
"Activin receptor type-2A (ACVR2A, Homo sapiens, UniProt P27037)",cell-free assay,83
"Serine/threonine-protein kinase Sgk2 (SGK2, Homo sapiens, UniProt Q9HBY8)",cell-free assay,100
"Tyrosine-protein kinase ABL1, phosphorylated (ABL1, Homo sapiens, UniProt P00519, Y253F)",cell-free assay,95
"Receptor-type tyrosine-protein kinase FLT3 (FLT3, Homo sapiens, UniProt P36888)",cell-free assay,85
"Dual serine/threonine and tyrosine protein kinase (DSTYK, Homo sapiens, UniProt Q6XUX3)",cell-free assay,83
"Calcium/calmodulin-dependent protein kinase type 1 (CAMK1, Homo sapiens, UniProt Q14012)",cell-free assay,95
"Cyclin-dependent kinase 15 (CDK15, Homo sapiens, UniProt Q96Q40)",cell-free assay,100
"Receptor-type tyrosine-protein kinase FLT3 (FLT3, Homo sapiens, UniProt P36888, ITD)",cell-free assay,96
"Receptor-type tyrosine-protein kinase FLT3 (FLT3, Homo sapiens, UniProt P36888, D835Y)",cell-free assay,100
"Casein kinase I isoform epsilon (CSNK1E, Homo sapiens, UniProt P49674)",cell-free assay,86
"MAP kinase-interacting serine/threonine-protein kinase 1 (MKNK1, Homo sapiens, UniProt Q9BUB5)",cell-free assay,72
"Receptor-interacting serine/threonine-protein kinase 4 (RIPK4, Homo sapiens, UniProt P57078)",cell-free assay,67
"Serine/threonine-protein kinase Nek7 (NEK7, Homo sapiens, UniProt Q8TDX7)",cell-free assay,100
"MAP kinase-activated protein kinase 5 (MAPKAPK5, Homo sapiens, UniProt Q8IW41)",cell-free assay,95
"Myosin-IIIa (MYO3A, Homo sapiens, UniProt Q8NEV4)",binding,100
"Epidermal growth factor receptor (EGFR, Homo sapiens, UniProt P00533, A750P/del747-749)",cell-free assay,100
"Insulin receptor-related protein (INSRR, Homo sapiens, UniProt P14616)",cell-free assay,90
"Ephrin type-B receptor 2 (EPHB2, Homo sapiens, UniProt P29323)",cell-free assay,100
"Macrophage colony-stimulating factor 1 receptor, autoinhibited (CSF1R, Homo sapiens, UniProt P07333)",cell-free assay,91
"Cyclin-dependent kinase 4, with cyclin D3 (CDK4, Homo sapiens, UniProt P11802)",cell-free assay,82
"Wee1-like protein kinase 2 (WEE2, Homo sapiens, UniProt P0C1S8)",cell-free assay,100

# Block 2 — mode: inhibitor; concentration: concentration not given; added: without ssDNA
# Target: DNA polymerase theta, helicase domain (POLQ, Homo sapiens, UniProt O75417)
# Sequence of UniProt O75417 (whole entry, looked up): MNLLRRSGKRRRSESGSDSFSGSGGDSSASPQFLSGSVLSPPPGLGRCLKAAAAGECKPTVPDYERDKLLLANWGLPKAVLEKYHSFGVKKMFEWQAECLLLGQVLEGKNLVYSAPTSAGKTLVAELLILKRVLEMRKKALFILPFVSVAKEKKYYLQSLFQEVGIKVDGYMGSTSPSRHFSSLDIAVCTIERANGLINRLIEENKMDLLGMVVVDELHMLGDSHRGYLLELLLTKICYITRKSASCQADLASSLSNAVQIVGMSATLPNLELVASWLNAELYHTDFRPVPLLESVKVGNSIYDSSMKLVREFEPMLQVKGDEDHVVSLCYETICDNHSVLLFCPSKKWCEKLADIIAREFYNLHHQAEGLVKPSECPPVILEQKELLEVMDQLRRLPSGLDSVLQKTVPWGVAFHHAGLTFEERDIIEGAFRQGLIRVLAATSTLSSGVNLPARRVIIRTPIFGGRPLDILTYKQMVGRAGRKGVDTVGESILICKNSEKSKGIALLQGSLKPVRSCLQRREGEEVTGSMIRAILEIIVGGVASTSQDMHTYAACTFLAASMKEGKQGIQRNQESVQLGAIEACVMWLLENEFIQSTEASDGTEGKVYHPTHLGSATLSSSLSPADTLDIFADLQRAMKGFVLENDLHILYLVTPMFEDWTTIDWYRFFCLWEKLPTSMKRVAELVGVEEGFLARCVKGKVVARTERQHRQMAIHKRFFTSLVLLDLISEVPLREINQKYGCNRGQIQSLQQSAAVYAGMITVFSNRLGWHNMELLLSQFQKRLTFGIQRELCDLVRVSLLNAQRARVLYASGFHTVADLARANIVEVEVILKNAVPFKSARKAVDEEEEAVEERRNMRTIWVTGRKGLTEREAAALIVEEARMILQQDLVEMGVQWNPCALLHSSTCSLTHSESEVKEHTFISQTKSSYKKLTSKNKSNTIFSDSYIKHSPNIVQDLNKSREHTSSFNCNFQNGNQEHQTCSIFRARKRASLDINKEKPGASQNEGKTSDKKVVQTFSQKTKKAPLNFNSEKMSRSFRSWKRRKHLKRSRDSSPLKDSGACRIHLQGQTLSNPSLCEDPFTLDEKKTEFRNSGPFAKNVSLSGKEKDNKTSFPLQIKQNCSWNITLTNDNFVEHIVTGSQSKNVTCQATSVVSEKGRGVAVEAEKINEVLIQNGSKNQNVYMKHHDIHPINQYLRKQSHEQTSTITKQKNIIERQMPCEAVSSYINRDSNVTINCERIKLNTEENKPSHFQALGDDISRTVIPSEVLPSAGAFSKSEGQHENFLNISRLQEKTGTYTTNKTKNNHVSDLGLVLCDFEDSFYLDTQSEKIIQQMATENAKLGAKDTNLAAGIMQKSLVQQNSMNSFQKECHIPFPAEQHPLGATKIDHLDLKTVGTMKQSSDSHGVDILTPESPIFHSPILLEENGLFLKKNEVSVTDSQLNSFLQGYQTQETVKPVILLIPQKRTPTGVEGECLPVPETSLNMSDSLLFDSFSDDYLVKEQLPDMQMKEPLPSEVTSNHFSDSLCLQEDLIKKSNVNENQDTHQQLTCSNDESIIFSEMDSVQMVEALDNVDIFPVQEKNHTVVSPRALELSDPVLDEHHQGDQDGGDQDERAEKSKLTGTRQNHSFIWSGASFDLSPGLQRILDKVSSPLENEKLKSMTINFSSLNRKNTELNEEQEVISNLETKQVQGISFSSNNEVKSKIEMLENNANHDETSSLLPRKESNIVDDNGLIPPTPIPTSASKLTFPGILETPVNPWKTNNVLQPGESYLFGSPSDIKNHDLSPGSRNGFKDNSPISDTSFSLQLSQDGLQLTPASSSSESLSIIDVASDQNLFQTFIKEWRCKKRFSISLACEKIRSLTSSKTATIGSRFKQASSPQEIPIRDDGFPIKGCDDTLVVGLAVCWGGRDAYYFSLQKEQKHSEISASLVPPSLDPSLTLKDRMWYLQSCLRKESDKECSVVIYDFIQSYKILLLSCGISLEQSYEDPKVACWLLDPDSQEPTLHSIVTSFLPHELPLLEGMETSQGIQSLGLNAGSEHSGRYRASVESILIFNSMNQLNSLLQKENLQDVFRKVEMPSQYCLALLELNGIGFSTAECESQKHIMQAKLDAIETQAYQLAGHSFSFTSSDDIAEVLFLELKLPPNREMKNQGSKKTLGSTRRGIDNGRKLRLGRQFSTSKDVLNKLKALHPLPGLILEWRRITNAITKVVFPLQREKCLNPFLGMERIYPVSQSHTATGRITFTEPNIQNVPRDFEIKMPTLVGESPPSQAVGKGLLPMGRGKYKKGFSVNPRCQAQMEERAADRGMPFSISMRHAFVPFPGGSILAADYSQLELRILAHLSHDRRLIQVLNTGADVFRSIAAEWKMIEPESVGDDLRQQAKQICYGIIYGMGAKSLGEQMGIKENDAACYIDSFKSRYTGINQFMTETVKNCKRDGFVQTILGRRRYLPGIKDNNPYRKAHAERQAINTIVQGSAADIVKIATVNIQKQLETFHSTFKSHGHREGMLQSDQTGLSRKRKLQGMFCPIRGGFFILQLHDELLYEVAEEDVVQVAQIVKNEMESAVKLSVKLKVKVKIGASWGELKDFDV
Structure (SMILES),remaining activity
Cc1ccc(C(=O)Nc2ccccc2C(=O)O)cc1S(=O)(=O)N1CCCCCC1,65% and 64.2%
COc1cc(NC(=O)CSc2ncc(S(=O)(=O)c3ccc(Br)cc3)c(=O)[nH]2)cc(OC)c1,98.7% and 93.8%
CCOc1cccc2c1N[C@@H](c1ccc(C(=O)O)cc1)[C@H]1CC=C[C@@H]21,62.4% and 66.8%
CC1=Nc2cc(C(=O)NCCc3ccc(Cl)cc3)ccc2Sc2ccc(C)cc21,65% and 60%
CCCCCCCCCCC/C=C\C(C)(C)/C=C\CCCC(=O)O,106% and 97.2%
COc1ccc2c(c1)c(CC(=O)O)c(C)n2Cc1ccc(Cl)cc1,63.8% and 64.2%
Cc1ccc(C(=O)c2cc(O)c(O)c([N+](=O)[O-])c2)cc1,42.5% and 42.4%
Cc1noc(C)c1S(=O)(=O)Nc1ccc(C(=O)Nc2ccc(Br)cc2)cc1,82.1% and 74%
Cc1c(Cl)cccc1NC(=O)CSc1ncc(S(=O)(=O)c2ccc(C(C)C)cc2)c(=O)[nH]1,94% and 88.5%
COC(=O)c1cc(Cl)ccc1NC(=O)CSc1ncc(S(=O)(=O)c2ccc(Br)cc2)c(=O)[nH]1,90.8% and 89.4%
O=C(Nc1ccccc1C(=O)O)c1cccc(S(=O)(=O)N2CCCC2)c1,55.4% and 53.7%
CCOc1ccc2nc3cc(N)ccc3c(N)c2c1,103% and 95.2%

# Block 3 — observed: enzyme activity; mode: inhibitor; concentration: 0.5 µM; baseline: control
# Target: Dual serine/threonine and tyrosine protein kinase (DSTYK, Homo sapiens, UniProt Q6XUX3)
Structure (SMILES),remaining activity [%]
O=C1NC(=O)c2c1c1c3ccccc3[nH]c1n1cncc21,106
COc1ccc(COc2ccc(Cc3cnc(N)nc3N)cc2OC)cc1,95
COc1cccc(-c2cc(=O)c3ccccc3o2)c1N,97.1
Oc1cccc(-c2nc(N3CCOCC3)c3oc4ncccc4c3n2)c1,96.1
c1ccc2c(-c3ccncc3)c[nH]c2c1,95.9
Cc1ccc(S(=O)(=O)/C=C/C#N)cc1,97.8
O=Nc1c(-c2c(O)[nH]c3cc(Br)ccc23)[nH]c2ccccc12,102
O=C(c1cc2cc(O)ccc2[nH]1)c1cc2cc(O)ccc2[nH]1,95.5
O=C1Nc2ccc(Br)cc2/C1=C/c1cc2c([nH]1)CCCC2,93.1
O=c1cc(N2CCOCC2)oc2c(-c3ccccc3)cccc12,113
O=C1Nc2ccccc2/C1=C\c1c(Cl)[nH]c2ccccc12,95.7
N#Cc1cnc2cnc(NCc3cccnc3)cc2c1Nc1ccc(F)c(Cl)c1,87.3
CCCNC(=O)Nc1ccc(Oc2ncnc3cc(OC)c(OC)cc23)cc1Cl,88.6
CN1CCN(c2ccc3nc(-c4c(N)c5c(F)cccc5[nH]c4=O)[nH]c3c2)CC1,98.4
O=C1Cc2c([nH]c3ccc(Br)cc23)-c2ccccc2N1,98.6
c1ccc(-c2n[nH]c3c2oc2ccccc23)cc1,82.9
CN(C)S(=O)(=O)c1ccc2c(c1)/C(=C/c1cc3c([nH]1)CCCC3)C(=O)N2,96
Cc1cc(Nc2cc(N3CCN(C)CC3)nc(Sc3ccc(NC(=O)C4CC4)cc3)n2)[nH]n1,97.2
COc1ccc2c(c1)c(C1=C(c3c[nH]c4ccccc34)C(=O)NC1=O)cn2CCCN(C)C,82.8

# Block 4 — observed: acetyl-histone H4 peptide binding; method: AlphaScreen displacement; concentration: 50 µM
# Target: Bromodomain-containing protein 4, BD1 (BRD4, Homo sapiens, UniProt O60885)
SMILES,inhibition [%]
O=C1NC(=O)C(c2c[nH]c3ccccc23)=C1c1c[nH]c2ccccc12,81
COc1ccc(-c2[nH]c3ncccc3c2CN2CCOCC2)cc1,23.2
O=C(O)CSc1nnc(-c2ccc(Cl)cc2)n1-c1ccccc1,8.55
O=c1[nH]c2ncc(-c3cccnc3)nc2n1C1CCCC1,4.8
CCN(CC)Cc1c(-c2ccncc2)[nH]c2ncccc12,1.15
CC(=O)Nc1ccc(NC(=O)CSc2ccc3nnc(-c4cccc(F)c4)n3n2)cc1,10.6
O=C1Nc2ccccc2C1=Cc1ccc[nH]1,38.9
O=C(Nc1cc(C(F)(F)F)ccc1N1CCCCC1)c1ccncc1,8.45
Cl.O=S(=O)(c1cccc2c(Cl)cccc12)N1CCCNCC1,5.1
NC(=O)c1ccc2ccccc2c1,1.55
O=C(Nc1ccc2[nH]ncc2c1)c1ccc(Cl)cc1Cl,-1.1
O=C1NC(=O)C(=Cc2ccc3c(c2)OC(F)(F)O3)S1,2.55
O=C1Nc2ccc(Br)cc2C1=CC(=O)c1ccc(F)cc1,69.7
Cc1[nH]c(/C=C2\C(=O)Nc3ccc(S(=O)(=O)Cc4c(Cl)cccc4Cl)cc32)c(C)c1C(=O)N1CCC[C@@H]1CN1CCCC1,67.7
COc1ccc(-c2nnc3ccc(SCC(=O)Nc4cccc(Cl)c4)nn23)cc1OC,19.5
COc1ccc(Nc2nc(N)nc3[nH]cnc23)cc1,22.7

# A few entries again (block 2):
Structure (SMILES),remaining activity
COc1cc(NC(=O)CSc2ncc(S(=O)(=O)c3ccc(Br)cc3)c(=O)[nH]2)cc(OC)c1,98.7% and 93.8%
CCOc1ccc2nc3cc(N)ccc3c(N)c2c1,103% and 95.2%
Cc1ccc(C(=O)c2cc(O)c(O)c([N+](=O)[O-])c2)cc1,42.5% and 42.4%
O=C(Nc1ccccc1C(=O)O)c1cccc(S(=O)(=O)N2CCCC2)c1,55.4% and 53.7%
CCCCCCCCCCC/C=C\C(C)(C)/C=C\CCCC(=O)O,106% and 97.2%
CCOc1cccc2c1N[C@@H](c1ccc(C(=O)O)cc1)[C@H]1CC=C[C@@H]21,62.4% and 66.8%
COC(=O)c1cc(Cl)ccc1NC(=O)CSc1ncc(S(=O)(=O)c2ccc(Br)cc2)c(=O)[nH]1,90.8% and 89.4%
